Measured values collected from several papers.
± gives the spread as reported. ≈ marks a conversion by molar mass, not a printed value.
Organism: Candida albicans

SMILES | test | system | setting | how to read | endpoint | result
CC[C@H](C)[C@H](NC(=O)CN)C(=O)NCC(=O)N[C@@H](C)C(=O)N[C@H](C(=O)N[C@@H](CC(C)C)C(=O)N[C@@H](CCCCN)C(=O)N[C@H](C(=O)N[C@@H](CC(C)C)C(=O)N[C@H](C(=O)N[C@H](C(=O)NCC(=O)N[C@@H](CC(C)C)C(=O)N1CCC[C@H]1C(=O)N[C@@H](C)C(=O)N[C@@H](CC(C)C)C(=O)N[C@H](C(=O)N[C@@H](CO)C(=O)N[C@@H](Cc1c[nH]c2ccccc12)C(=O)N[C@H](C(=O)N[C@@H](CCCCN)C(=O)N[C@@H](CCCNC(=N)N)C(=O)N[C@@H](CCCCN)C(=O)N[C@@H](CCCNC(=N)N)C(=O)N[C@@H](CCC(N)=O)C(=O)N[C@@H](CCC(N)=O)C(N)=O)[C@@H](C)CC)[C@@H](C)CC)[C@@H](C)O)[C@@H](C)O)C(C)C)C(C)C | broth microdilution | fluconazole-resistant 56214, RPMI-1640 | 48 h, 30 °C |  | MIC | 2 µM (≈ 5.69 µg/mL)
OC(Cn1cncn1)(Cn1cncn1)c1ccc(F)cc1F | broth microdilution | 58288, RPMI 1640-MOPS | 48 h, 30 °C |  | MIC | 16 µM (≈ 4.9 µg/mL)
CO[C@H]1[C@H](O[C@H]([C@H]2O[C@@H](n3ccc(=O)[nH]c3=O)[C@H](O)[C@@H]2O)[C@H](NCCCNC(=O)[C@@H](NC(=O)[C@@H](NC(=O)N[C@H](C(=O)O)C(C)C)[C@@H]2CCN=C(N)N2)[C@@H](OC(=O)CCCCCCCCCCCCN(O)C(=N)N)C(C)C)C(=O)O)O[C@H](CN)[C@H]1O | alamar blue | 18 M |  |  | MIC50 | > 35 µg/mL
C#Cc1ccc(C=NNC(=O)c2ccc(COC)cc2)c(O)c1 |  | A39 | unit not given, with: caspofungin | lower = more synergy | FICI | 1
OC(Cn1cncn1)(Cn1cncn1)c1ccc(F)cc1F |  | 2.209 | over 30 generations serial passaging | baseline: initial MIC | MIC increase | 128 fold
Cl.O[C@]12C=C(c3nccc4c3[nH]c3ccccc34)[C@@H]3CCN(CCCC/C=C\CC1)C[C@@]31C[C@@H]3/C=C\CCCCN3[C@H]12 | growth | ATCC 90028 |  |  | IC50 | 5.16 ± 0.27 µg/mL
C#Cc1ccc(O)c(C=NNC(=O)c2cc(Br)cc(Br)c2O)c1 |  | A39 | unit not given, with: caspofungin | lower = more synergy | FICI | 1.25
N=C(N)NCCC[C@H](NC(=O)CN)C(=O)N[C@@H](Cc1c[nH]c2ccccc12)C(=O)N[C@@H](CCCNC(=N)N)C(=O)N[C@@H](Cc1c[nH]c2ccccc12)C(=O)N[C@@H](Cc1c[nH]c2ccccc12)C(=O)N[C@@H](Cc1c[nH]c2ccccc12)C(=O)N[C@@H](CCCNC(=N)N)C(=O)N[C@@H](Cc1c[nH]c2ccccc12)C(=O)N[C@@H](CCCNC(=N)N)C(=O)N[C@@H](Cc1ccccc1)C(N)=O | broth microdilution | CGMCC 2.209, RPMI 1640-MOPS | 48 h, 30 °C, with: MgCl2 1 mM |  | MIC | 32 µM (≈ 56.9 µg/mL)
C[C@@H]1C[C@@H]([C@H](O)CC2CC(=O)NC(=O)C2)C(=O)[C@@H](C)C1 |  | ATCC 10231 | concentration not given |  | inhibition zone diameter | 40 mm
C#Cc1cccc(C=NNC(=O)c2ccc(Br)c(Br)c2)c1O |  | A39 | unit not given, with: caspofungin | lower = more synergy | FICI | 0.5
C[C@H](NC(=O)[C@H](CCCNC(=N)N)NC(=O)[C@H](Cc1c[nH]c2ccccc12)NC(=O)[C@H](CCCNC(=N)N)NC(=O)[C@H](Cc1c[nH]c2ccccc12)NC(=O)[C@H](Cc1c[nH]c2ccccc12)NC(=O)[C@H](Cc1c[nH]c2ccccc12)NC(=O)[C@H](CCCNC(=N)N)NC(=O)[C@H](Cc1c[nH]c2ccccc12)NC(=O)[C@H](CCCNC(=N)N)NC(=O)CN)C(N)=O | broth microdilution | CGMCC 2.209, RPMI 1640-MOPS | 48 h, 30 °C, with: MgCl2 1 mM |  | MIC | 8 µM (≈ 13.6 µg/mL)
C#Cc1ccc(O)c(C=NNC(=O)c2ccc(Br)cc2)c1 |  | A39 | unit not given, with: caspofungin | lower = more synergy | FICI | 2
CC(C)[C@H](NC(=O)[C@H](CCCNC(=N)N)NC(=O)[C@H](Cc1c[nH]c2ccccc12)NC(=O)[C@H](CCCNC(=N)N)NC(=O)[C@H](Cc1c[nH]c2ccccc12)NC(=O)[C@H](Cc1c[nH]c2ccccc12)NC(=O)[C@H](Cc1c[nH]c2ccccc12)NC(=O)[C@H](CCCNC(=N)N)NC(=O)[C@H](Cc1c[nH]c2ccccc12)NC(=O)[C@H](CCCNC(=N)N)NC(=O)CN)C(N)=O | broth microdilution | 56452, RPMI 1640-MOPS | 48 h, 30 °C |  | MIC | 8 µM (≈ 13.8 µg/mL)
C#Cc1ccc(O)c(C=NNC(=O)c2ccc(C3(C(F)(F)F)N=N3)cc2)c1 |  | A39 | unit not given, with: caspofungin | lower = more synergy | FICI | 0.62
N=C(N)NCCC[C@H](NC(=O)[C@H](Cc1c[nH]c2ccccc12)NC(=O)[C@H](CCCNC(=N)N)NC(=O)[C@H](Cc1c[nH]c2ccccc12)NC(=O)[C@H](Cc1c[nH]c2ccccc12)NC(=O)[C@H](Cc1c[nH]c2ccccc12)NC(=O)[C@H](CCCNC(=N)N)NC(=O)[C@H](Cc1c[nH]c2ccccc12)NC(=O)[C@@H](N)CCCNC(=N)N)C(N)=O | broth microdilution | 14936, RPMI 1640-MOPS | 48 h, 30 °C |  | MIC | 8 µM (≈ 12.6 µg/mL)

Excerpt of the above:
SMILES | test | system | setting | how to read | endpoint | result
C#Cc1ccc(O)c(C=NNC(=O)c2ccc(C3(C(F)(F)F)N=N3)cc2)c1 |  | A39 | unit not given, with: caspofungin | lower = more synergy | FICI | 0.62
N=C(N)NCCC[C@H](NC(=O)[C@H](Cc1c[nH]c2ccccc12)NC(=O)[C@H](CCCNC(=N)N)NC(=O)[C@H](Cc1c[nH]c2ccccc12)NC(=O)[C@H](Cc1c[nH]c2ccccc12)NC(=O)[C@H](Cc1c[nH]c2ccccc12)NC(=O)[C@H](CCCNC(=N)N)NC(=O)[C@H](Cc1c[nH]c2ccccc12)NC(=O)[C@@H](N)CCCNC(=N)N)C(N)=O | broth microdilution | 14936, RPMI 1640-MOPS | 48 h, 30 °C |  | MIC | 8 µM (≈ 12.6 µg/mL)
